Experimental data gathered from unrelated publications.
Numbers after ± are the reported error. Non-standard residues stand in square brackets, D forms with d. Square brackets hold non-standard residues; d marks the D form. Ends that are not written are not given here. No end group written: not given here. * marks the point of attachment.
B1: pdeA 2-130 (Caulobacter crescentus, UniProt Q9A310); sequence looked up; chain SFRTGERRIWDATATLEALGAADVALWIWEPETDRLRLNGAARALGLGPLAPECSSAAFRALALPQDRAQAEEVLKPREPGSEVVARFRVRGGETCLWRGVWLEEGVRAAGVVAPETKFSASELCDLTG
B2: ALOX15 (Homo sapiens, UniProt P16050); sequence looked up; chain MGLYRIRVSTGASLYAGSNNQVQLWLVGQHGEAALGKRLWPARGKETELKVEVPEYLGPLLFVKLRKRHLLKDDAWFCNWISVQGPGAGDEVRFPCYRWVEGNGVLSLPEGTGRTVGEDPQGLFQKHREEELEERRKLYRWGNWKDGLILNMAGAKLYDLPVDERFLEDKRVDFEVSLAKGLADLAIKDSLNVLTCWKDLDDFNRIFWCGQSKLAERVRDSWKEDALFGYQFLNGANPVVLRRSAHLPARLVFPPGMEELQAQLEKELEGGTLFEADFSLLDGIKANVILCSQQHLAAPLVMLKLQPDGKLLPMVIQLQLPRTGSPPPPLFLPTDPPMAWLLAKCWVRSSDFQLHELQSHLLRGHLMAEVIVVATMRCLPSIHPIFKLIIPHLRYTLEINVRARTGLVSDMGIFDQIMSTGGGGHVQLLKQAGAFLTYSSFCPPDDLADRGLLGVKSSFYAQDALRLWEIIYRYVEGIVSLHYKTDVAVKDDPELQTWCREITEIGLQGAQDRGFPVSLQARDQVCHFVTMCIFTCTGQHASVHLGQLDWYSWVPNAPCTMRLPPPTTKDATLETVMATLPNFHQASLQMSITWQLGRRQPVMVAVGQHEEEYFSGPEPKAVLKKFREELAALDKEIEIRNAKLDMPYEYLRPSVVENSVAI
B3: RAB8A (Homo sapiens, UniProt P61006); sequence looked up; chain MAKTYDYLFKLLLIGDSGVGKTCVLFRFSEDAFNSTFISTIGIDFKIRTIELDGKRIKLQIWDTAGQERFRTITTAYYRGAMGIMLVYDITNEKSFDNIRNWIRNIEEHASADVEKMILGNKCDVNDKRQVSKERGEKLALDYGIKFMETSAKANINVENAFFTLARDIKAKMDKKLEGNSPQGSNQGVKITPDQQKRSSFFRCVLL
B4: myo52/cam1/cdc4 heavy chain 1-1056 (Schizosaccharomyces pombe); chain 1 MTSGIYYKGLQCWIPDEQSQWIPGSIKDCRVEGEKAFLTVQDENENETVITVKPDDLNYEGRNGLPFLRSINSDADDLTDLSYLNEPSVLDALSTRYNQLQIYTYSGIVLIAVNPFQRLPNLYTHEIVRAYSEKSRDELDPHLYAIAEDSYKCMNQEHKNQTIIISGESGAGKTVSARYIMRYFASVQALIQSTDSNFHEAPQLTAVENEILATNPIMEAFGNSKTSRNDNSSRFGKYIQILFDGNATIIGAKIQTYLLERSRLVFQPNQERNYHIFYQILAGSSSEQLEKWKLVENSQEFNYLKQGNCSTIEGVNDKEEFKATVDALKTVGIDNDTCECIFSLLAALLHIGNIEVKHSRNDAYIDSKNENLINATSLLGVDPSSLVKWLTKRKIKMASEGILKPLNEFQAVVARDSVAKFLYASLFDWLVATINKALMYSADKSNQTAKSFIGVLDIYGFEHFKKNSFEQFCINYANEKLQQEFYRHVFKLEQEEYAAEGLNWSYIDYQDNQQCISMIESRLGILSLLDEECRMPTNSDENWVSKLNDAFSKPEFKNSYQKSRFGNKEFTIKHYALDVVYCAEGFIDKNRDTISDELLELFTNSDVPFVKDLVLFRLEQTAPPADTKKIKTKPKSNTLGSMFKSSLVSLMSTINETNAHYIRCIKPNEEKEAWKFDNQMVVSQLRACGVLETIKISCAGFPSRWTFDEFVSRYYMLVPSAVRTTESLTFSKAILEKHADPTKYQIGKTKIFFRSGVTPLLESARDKALKHAAHLLYEAFAVNYYRTRFLLSRKRVRSFQAVAHGFLSRRHTEYELLSSNIIKLQSLWRTALKRKEFIQTKNSILKVQSIIRGFLLRQTLEEKTKHDATLIIQSLWLTFKAHKHYKELQYYAVRIQSLWRMKLAKRQLTELKIESTKASHLKQVSYRLESRLFEISKQLDNSEQENNKFRERIAELESHLSNYAEAKLAQERELEQTRVLISDQSQDGELKELLEEKENALIMMEEEMRQVNDANTELLRVNATLKSQLKNYDMIIVEQTSQLKEKNRIIASLTKA; chain 2 MTTRNLTDEQIAEFREAFSLFDRDQDGNITSNELGVVMRSLGQSPTAAELQDMINEVDADGNGTIDFTEFLTMMARKMKDTDNEEEVREAFKVFDKDGNGYITVEELTHVLTSLGERLSQEEVADMIREADTDGDGVINYEEFSRVISSK; chain 3 MSTDDSPYKQAFSLFDRHGTGRIPKTSIGDLLRACGQNPTLAEITEIESTLPAEVDMEQFLQVLNRPNGFDMPGDPEEFVKGFQVFDKDATGMIGVGELRYVLTSLGEKLSNEEMDELLKGVPVKDGMVNYHDFVQMILAN
B5: UGT1A9 (Homo sapiens, UniProt O60656); chain GKLLVVPMDGSHWFTMRSVVEKLILRGHEVVVVMPEVSWQLGRSLNCTVKTYSTSYTLEDLDREFKAFAHAQWKAQVRSIYSLLMGSYNDIFDLFFSNCRSLFKDKKLVEYLKESSFDAVFLDPFDNCGLIVAKYFSLPSVVFARGILCHYLEEGAQCPAPLSYVPRILLGFSDAMTFKERVRNHIMHLEEHLLCHRFFKNALEIASEILQTPVTEYDLYSHTSIWLLRTDFVLDYPKPVMPNMIFIGGINCHQGKPLPMEFEAYINASGEHGIVVFSLGSMVSEIPEKKAMAIADALGKIPQTVLWRYTGTRPSNLANNTILVKWLPQNDLLGHPMTRAFITHAGSHGVYESICNGVPMVMMPLFGDQMDNAKRMETKGAGVTLNVLEMTSEDLENALKAVINDKSYKENIMRLSSLHKDRPVEPLDLAVFWVEFVMRHKGAPHLRPAAHDLTWYQYHSLDVIGFLLAVVLTVAFITFKCCAYGYRKCLGKKGRVKKAHKSKTH
UniProt P06400, sequence (whole entry, unmodified, looked up): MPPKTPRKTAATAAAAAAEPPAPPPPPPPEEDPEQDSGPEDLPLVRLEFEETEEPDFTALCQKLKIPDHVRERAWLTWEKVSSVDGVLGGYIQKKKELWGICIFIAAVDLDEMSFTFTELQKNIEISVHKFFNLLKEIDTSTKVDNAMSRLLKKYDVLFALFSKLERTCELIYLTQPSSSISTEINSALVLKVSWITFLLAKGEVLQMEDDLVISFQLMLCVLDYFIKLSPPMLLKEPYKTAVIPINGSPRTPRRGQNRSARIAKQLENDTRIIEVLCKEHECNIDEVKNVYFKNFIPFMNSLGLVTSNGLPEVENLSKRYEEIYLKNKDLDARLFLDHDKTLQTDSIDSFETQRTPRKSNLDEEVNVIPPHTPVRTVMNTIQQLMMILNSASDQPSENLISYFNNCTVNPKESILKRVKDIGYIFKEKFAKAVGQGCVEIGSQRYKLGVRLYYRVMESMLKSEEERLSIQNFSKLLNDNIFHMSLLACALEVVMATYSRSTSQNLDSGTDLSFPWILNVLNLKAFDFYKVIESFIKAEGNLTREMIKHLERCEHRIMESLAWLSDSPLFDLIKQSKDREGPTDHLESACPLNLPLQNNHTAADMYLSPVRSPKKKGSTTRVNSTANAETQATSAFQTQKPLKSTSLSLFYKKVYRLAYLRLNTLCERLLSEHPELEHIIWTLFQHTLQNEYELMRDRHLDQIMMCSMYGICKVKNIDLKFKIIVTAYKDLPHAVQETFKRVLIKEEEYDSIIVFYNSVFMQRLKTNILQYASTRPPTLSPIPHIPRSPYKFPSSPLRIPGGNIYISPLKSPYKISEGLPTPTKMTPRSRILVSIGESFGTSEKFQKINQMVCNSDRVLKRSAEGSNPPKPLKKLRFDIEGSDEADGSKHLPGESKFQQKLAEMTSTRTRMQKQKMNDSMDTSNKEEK
UniProt P01024, sequence (whole entry, looked up): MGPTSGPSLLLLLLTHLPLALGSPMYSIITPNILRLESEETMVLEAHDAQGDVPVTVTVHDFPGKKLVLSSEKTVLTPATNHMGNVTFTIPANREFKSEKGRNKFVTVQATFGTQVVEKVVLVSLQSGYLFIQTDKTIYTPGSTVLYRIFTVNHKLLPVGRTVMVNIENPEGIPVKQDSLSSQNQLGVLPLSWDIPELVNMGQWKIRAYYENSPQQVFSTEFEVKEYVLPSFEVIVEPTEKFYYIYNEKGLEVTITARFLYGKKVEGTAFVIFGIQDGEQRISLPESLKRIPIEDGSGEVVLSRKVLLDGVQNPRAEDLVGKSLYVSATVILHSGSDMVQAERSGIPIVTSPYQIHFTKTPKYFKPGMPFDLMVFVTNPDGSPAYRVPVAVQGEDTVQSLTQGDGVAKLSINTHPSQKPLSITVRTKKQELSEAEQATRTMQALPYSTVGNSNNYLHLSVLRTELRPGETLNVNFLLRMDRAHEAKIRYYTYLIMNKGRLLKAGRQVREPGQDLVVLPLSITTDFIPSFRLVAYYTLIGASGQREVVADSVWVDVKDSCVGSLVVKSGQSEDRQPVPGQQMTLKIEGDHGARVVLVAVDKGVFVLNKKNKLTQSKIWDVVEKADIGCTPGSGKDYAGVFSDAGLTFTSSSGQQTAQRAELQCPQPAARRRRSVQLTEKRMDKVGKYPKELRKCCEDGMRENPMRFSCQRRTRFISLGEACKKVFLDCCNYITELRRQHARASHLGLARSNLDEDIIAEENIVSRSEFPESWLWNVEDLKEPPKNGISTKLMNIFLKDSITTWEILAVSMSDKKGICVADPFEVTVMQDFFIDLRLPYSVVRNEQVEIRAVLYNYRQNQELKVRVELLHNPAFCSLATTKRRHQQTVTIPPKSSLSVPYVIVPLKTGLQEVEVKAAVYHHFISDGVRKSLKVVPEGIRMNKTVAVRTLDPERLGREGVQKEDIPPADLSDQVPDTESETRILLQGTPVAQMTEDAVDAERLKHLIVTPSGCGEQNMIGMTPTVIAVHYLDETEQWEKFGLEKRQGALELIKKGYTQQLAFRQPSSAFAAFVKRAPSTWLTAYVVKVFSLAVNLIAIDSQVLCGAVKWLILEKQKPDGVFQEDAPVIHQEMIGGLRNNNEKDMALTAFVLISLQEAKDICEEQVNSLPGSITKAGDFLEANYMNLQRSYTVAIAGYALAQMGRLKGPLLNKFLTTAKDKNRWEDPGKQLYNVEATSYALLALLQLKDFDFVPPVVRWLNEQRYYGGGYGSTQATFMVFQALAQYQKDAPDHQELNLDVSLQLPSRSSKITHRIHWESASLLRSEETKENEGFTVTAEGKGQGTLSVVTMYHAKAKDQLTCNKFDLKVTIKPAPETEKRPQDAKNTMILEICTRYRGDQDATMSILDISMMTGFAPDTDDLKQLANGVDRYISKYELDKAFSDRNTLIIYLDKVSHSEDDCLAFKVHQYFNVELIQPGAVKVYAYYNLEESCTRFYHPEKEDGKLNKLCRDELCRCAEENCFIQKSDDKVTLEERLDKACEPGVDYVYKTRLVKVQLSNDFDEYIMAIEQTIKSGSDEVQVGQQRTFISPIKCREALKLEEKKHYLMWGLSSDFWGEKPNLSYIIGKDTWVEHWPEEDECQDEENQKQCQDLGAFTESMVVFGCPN
UniProt Q01094, sequence (whole entry, looked up): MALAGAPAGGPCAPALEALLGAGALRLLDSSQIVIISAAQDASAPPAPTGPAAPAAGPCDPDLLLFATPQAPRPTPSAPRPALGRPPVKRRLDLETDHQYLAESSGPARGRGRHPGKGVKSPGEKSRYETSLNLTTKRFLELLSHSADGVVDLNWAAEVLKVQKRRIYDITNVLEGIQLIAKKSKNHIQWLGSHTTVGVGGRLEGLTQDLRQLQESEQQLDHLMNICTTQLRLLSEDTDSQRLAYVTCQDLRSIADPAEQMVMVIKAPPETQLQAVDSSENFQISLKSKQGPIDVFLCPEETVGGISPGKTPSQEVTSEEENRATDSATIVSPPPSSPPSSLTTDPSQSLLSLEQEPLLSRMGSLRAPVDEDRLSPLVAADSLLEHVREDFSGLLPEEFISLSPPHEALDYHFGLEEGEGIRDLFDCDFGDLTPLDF
UniProt Q6PDX6, sequence (whole entry, looked up): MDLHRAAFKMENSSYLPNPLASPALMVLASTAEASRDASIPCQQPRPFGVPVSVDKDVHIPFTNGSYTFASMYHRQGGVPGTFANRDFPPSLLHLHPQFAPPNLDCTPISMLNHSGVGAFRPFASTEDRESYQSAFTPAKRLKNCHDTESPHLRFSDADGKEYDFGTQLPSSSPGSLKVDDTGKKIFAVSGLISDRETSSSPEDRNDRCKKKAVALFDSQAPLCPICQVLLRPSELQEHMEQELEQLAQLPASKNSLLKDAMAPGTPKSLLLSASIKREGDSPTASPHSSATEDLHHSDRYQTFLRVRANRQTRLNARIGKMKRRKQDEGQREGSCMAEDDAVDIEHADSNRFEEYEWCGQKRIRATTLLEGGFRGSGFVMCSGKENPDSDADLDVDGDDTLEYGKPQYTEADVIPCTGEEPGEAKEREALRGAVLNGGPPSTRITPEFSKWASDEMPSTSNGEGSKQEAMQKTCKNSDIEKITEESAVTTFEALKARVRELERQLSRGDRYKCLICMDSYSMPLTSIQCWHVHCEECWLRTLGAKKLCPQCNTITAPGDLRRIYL
UniProt P54760, sequence (whole entry, looked up): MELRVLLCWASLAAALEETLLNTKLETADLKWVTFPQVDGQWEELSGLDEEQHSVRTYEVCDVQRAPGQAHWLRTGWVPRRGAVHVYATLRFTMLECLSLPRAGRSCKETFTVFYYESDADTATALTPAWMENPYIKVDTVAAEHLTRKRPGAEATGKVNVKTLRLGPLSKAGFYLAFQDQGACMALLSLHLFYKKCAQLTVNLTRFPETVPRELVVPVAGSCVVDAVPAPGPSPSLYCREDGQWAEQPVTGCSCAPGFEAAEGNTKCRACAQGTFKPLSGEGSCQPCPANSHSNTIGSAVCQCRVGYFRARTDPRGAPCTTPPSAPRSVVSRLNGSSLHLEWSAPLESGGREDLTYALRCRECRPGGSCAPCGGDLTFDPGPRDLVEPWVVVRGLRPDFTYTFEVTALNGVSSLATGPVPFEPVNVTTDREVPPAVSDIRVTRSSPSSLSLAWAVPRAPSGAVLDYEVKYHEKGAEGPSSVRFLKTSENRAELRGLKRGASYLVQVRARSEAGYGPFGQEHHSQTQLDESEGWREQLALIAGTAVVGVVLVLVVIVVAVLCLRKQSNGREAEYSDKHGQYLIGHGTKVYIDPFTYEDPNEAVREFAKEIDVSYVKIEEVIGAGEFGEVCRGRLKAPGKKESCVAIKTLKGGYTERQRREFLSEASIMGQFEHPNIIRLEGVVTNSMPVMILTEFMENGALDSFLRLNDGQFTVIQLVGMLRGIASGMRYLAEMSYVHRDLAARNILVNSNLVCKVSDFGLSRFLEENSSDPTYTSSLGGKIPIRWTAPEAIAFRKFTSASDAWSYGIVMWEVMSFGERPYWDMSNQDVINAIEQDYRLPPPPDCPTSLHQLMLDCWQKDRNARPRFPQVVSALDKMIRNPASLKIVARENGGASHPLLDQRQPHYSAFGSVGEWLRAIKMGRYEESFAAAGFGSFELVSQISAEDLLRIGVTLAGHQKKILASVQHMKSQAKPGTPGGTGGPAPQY
UniProt P48061, sequence (whole entry, looked up): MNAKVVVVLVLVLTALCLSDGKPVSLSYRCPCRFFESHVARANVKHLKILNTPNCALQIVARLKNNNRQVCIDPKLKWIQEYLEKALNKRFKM
UniProt P61073, sequence (whole entry, looked up): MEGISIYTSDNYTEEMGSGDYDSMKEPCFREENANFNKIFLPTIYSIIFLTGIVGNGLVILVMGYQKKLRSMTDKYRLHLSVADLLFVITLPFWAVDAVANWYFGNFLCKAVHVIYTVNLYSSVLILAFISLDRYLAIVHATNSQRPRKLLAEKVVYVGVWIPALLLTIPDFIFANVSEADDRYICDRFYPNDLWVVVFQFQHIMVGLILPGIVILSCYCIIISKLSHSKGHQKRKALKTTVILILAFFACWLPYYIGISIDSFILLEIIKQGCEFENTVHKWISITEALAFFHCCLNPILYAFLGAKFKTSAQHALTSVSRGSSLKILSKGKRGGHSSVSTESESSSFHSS

B1 (pdeA 2-130) — half-life (pdeA R69A (Caulobacter crescentus, UniProt Q9A310); degradation by CpdR/ClpXP; after subunit exchange): 1.37 h
E2F1 (Homo sapiens, UniProt Q01094) — E2F1 bound to pRB (RB1 (Homo sapiens, UniProt P06400); co-IP; IMR90, lysate; 16 hours, E1A expressing, with: doxorubicin 2 µM; reference: untreated cells, higher = more bound): 1.6 fold
B2 (ALOX15) — relative DNA-PK kinase activity (PRKDC (Homo sapiens, UniProt P78527); immunoprecipitation kinase assay; lysate; reference: HCT-116 vector cell lysates, higher = more kinase activity): 3 fold
CFH mature protein V62I (Homo sapiens) — EC50 (C3b (UniProt P01024); fI-mediated C3b inactivation; haemolysis assay, sheep erythrocytes): 14 nM
5FAM-GPLGVRGK(TAMRA)[AEEA]GRGDS-NH2 (MMP-cleavable RGD peptide; SMILES CC(C)C[C@H](NC(=O)[C@@H]1CCCN1C(=O)CNC(=O)c1ccc2c(c1)C(=O)OC21c2ccc(O)cc2Oc2cc(O)ccc21)C(=O)NCC(=O)N[C@H](C(=O)N[C@@H](CCCNC(=N)N)C(=O)NCC(=O)N[C@@H](CCCCNC(=O)c1ccc(-c2c3ccc(N(C)C)cc3[o+]c3cc(N(C)C)ccc23)c(C(=O)[O-])c1)C(=O)NCCOCCOCC(=O)NCC(=O)N[C@@H](CCCNC(=N)N)C(=O)NCC(=O)N[C@@H](CC(=O)O)C(=O)N[C@@H](CO)C(N)=O)C(C)C; N-terminal FAM, TAMRA on Lys, aeea linker, C-terminal amide; 5FAM = O=C1OC2(c3ccc(O)cc3Oc3cc(O)ccc32)c2ccc(C(=O)*)cc21; AEEA = NCCOCCOCC(=O)O; TAMRA = 5-carboxytetramethylrhodamine, CN(C)c1ccc2c(-c3ccc(C(=O)*)cc3C(=O)[O-])c3ccc(N(C)C)cc3[o+]c2c1) — IC50 (ITGAV/ITGB3; competition with ligand, ELISA; peptide; pH 7.6): 272 ± 64 nM
cpSRP43 substrate-binding domain (Arabidopsis thaliana) — chaperone activity (CHLH mature (Oryza sativa, UniProt Q10M50); heat-induced aggregation, light scattering; reference: cpSRP43-FL, higher = weaker chaperone activity): > 20 fold lower
CXCL12 mature (Homo sapiens, UniProt P48061) — EC50 (CXCR4 (Homo sapiens, UniProt P61073); inhibition of forskolin-induced cAMP accumulation, agonist; with: forskolin): 7.3 nM
IDEYFSEQPLKNLLLSTSEEQIAKCFIIENISTIA (IFNAR1 478-512 E500A (Homo sapiens, UniProt P17181)) — apparent Tm reduction (TYK2 23-583 (Homo sapiens, UniProt P29597); differential scanning fluorimetry; peptide): > 5 °C
CCND1/CDK4 fusion, linker (Homo sapiens) — phosphorylation reduction (RB1 1-892 (Homo sapiens, UniProt P06400); in vitro kinase assay; reference: wild-type Rb, higher = greater reduction): 20 fold
F8 (Homo sapiens, UniProt P00451) — endocytosis (C3b (Homo sapiens, UniProt P01024); flow cytometry; immature MO-DCs; 50 nM; reference: FVIII alone, higher = more endocytosis): 1.78 fold
MPIFLDHILNKFLILHYA (SPAM peptide parental) — koff (CD274 extracellular domain (Homo sapiens); BLI; peptide): 0.049 s⁻¹
{DOTA}-TNYLFSPNGPIARAW (peptide; N-terminal DOTA; DOTA = O=C(O)CN1CCN(CC(=O)O)CCN(CC(=O)*)CCN(CC(=O)O)CC1) — koff (EPHB4 16-539 (Homo sapiens, UniProt P54760); SPR; peptide): 0.00256 s⁻¹
GCVRLHESCLGQQVPCCDPAATCYCYGRGDNDLRCYCR (AgRP variant) — IC50 (ITGAV/ITGB3 whole, on cells (Homo sapiens); competition with labeled echistatin, radioligand binding; designed binder, U87MG; 3 h, room temperature, with: 125I-echistatin 0.06 nM): 23 nM
Rnf220 (Mus musculus, UniProt Q6PDX6) — polyubiquitination level (Gria2 (Mus musculus, UniProt P23819); GluA2 polyubiquitination; HEK293; reference: control without RNF220, higher = more ubiquitination): 4.72
CALM1 T26C, Alexa Fluor 568 at C26 (sequence not shown) — donor fluorescence lifetime (Camk2d T287A (Rattus norvegicus); FRET; representative cell; 500 nM): 2.3 ns
ITGB1 whole (Gallus gallus, UniProt P07228) — attachment (laminin (Mus musculus, UniProt P19137); neuron attachment; E14 CG neurons; 90 min, 37 °C, no antibody; reference: poly-D-lysine, higher = more attachment): 25%
RFC1/RFC2/RFC3/RFC4/RFC5 (Saccharomyces cerevisiae) — rate of clamp opening (POL30 F185W/K107C/C22S/C30S/C62S/C81S, AEDANS label on cysteine (Saccharomyces cerevisiae, UniProt P15873); stopped-flow FRET; with: ATP): 2 s⁻¹
MYO19 fragment (Homo sapiens) — mito/cyto ratio (RHOT2 (Homo sapiens, UniProt Q8IXI1-1); mitochondrial localisation; HeLa; higher = more mitochondrial): 1.3
TIMP2 N-terminal domain S4E/V6R/V18M/I35V/N38Q/S68N/V71N/H97R — Ki (MMP1 100-269 (Homo sapiens, UniProt P03956); fluorogenic substrate cleavage, inhibitor, enzyme inhibition assay; apparent): 0.78 nM
SERPINC1 R45E/R46E/K114E/R129E (Homo sapiens) — k2 (coagulation factor IXa; steady-state kinetics; room temperature, with: pentasaccharide H5): 62 M⁻¹ s⁻¹
KKAVK[pS]PAKAKAW (histone H1.1 residues 178-189 (Homo sapiens); pS183; pS = N[C@@H](COP(=O)(O)O)C(=O)O) — exchange rate constant (PIN1 51-163 (Homo sapiens, UniProt Q13526); EXSY NMR; peptide; 1 mM peptide, 25 °C): 6 s⁻¹
ACTC1 R312C (x) — Vmax (heavy meromyosin HMM (Oryctolagus cuniculus); myosin ATPase activity, steady-state kinetics; with: ATP 2 mM): 28 µM/s
B3 (RAB8A) — relative binding (Myo5a 1260-1853 (Mus musculus, UniProt Q99104); pull-down; CHO-IR, lysate; 15 min, with: insulin 100 nM; reference: unstimulated DMSO control, higher = more binding): 1.9 fold
CCND3/CDK4 fusion, linker (Homo sapiens) — Rb phosphorylation (RB1 F897A/L901A/R908A (Homo sapiens, UniProt P06400); in vitro kinase assay; reference: wild-type Rb, higher = greater difference): 90 fold
ETDKE[pY][pY]TVKD (JAK1 1029-1039; pY1034/pY1035; pY = N[C@@H](Cc1ccc(OP(=O)(O)O)cc1)C(=O)O) — ΔH (PTPN6 243-530 C453S (Homo sapiens, UniProt P29350); ITC; peptide): -16.6 ± 0.5 kcal/mol
B4 — relative run frequency (ACTA1/cdc8 actin filaments decorated with tropomyosin (Gallus gallus/Schizosaccharomyces pombe); TIRF microscopy; with: ATP 10 µM; reference: bare actin, higher = more processive runs): > 7 fold
B5 (UGT1A9) — Vmax/Km (CC(C)(c1ccc(O)cc1)c1ccc(O)cc1; steady-state kinetics; pH 7.4, 37 °C): 48 µL/min/mg
SERPINA1 S47C, Texas Red, Alexa Fluor 488 — stoichiometry of inhibition (trypsin (Bos taurus); trypsin inhibition): 1.1

A few entries again:
CXCL12 mature (Homo sapiens, UniProt P48061) — EC50 (CXCR4 (Homo sapiens, UniProt P61073); inhibition of forskolin-induced cAMP accumulation, agonist; with: forskolin): 7.3 nM
IDEYFSEQPLKNLLLSTSEEQIAKCFIIENISTIA (IFNAR1 478-512 E500A (Homo sapiens, UniProt P17181)) — apparent Tm reduction (TYK2 23-583 (Homo sapiens, UniProt P29597); differential scanning fluorimetry; peptide): > 5 °C
CCND1/CDK4 fusion, linker (Homo sapiens) — phosphorylation reduction (RB1 1-892 (Homo sapiens, UniProt P06400); in vitro kinase assay; reference: wild-type Rb, higher = greater reduction): 20 fold
F8 (Homo sapiens, UniProt P00451) — endocytosis (C3b (Homo sapiens, UniProt P01024); flow cytometry; immature MO-DCs; 50 nM; reference: FVIII alone, higher = more endocytosis): 1.78 fold
